Measurements of several laboratories.
Numbered parts are unrelated; each lists some results of a single study. Positions count from the first letter of the parent shown.

Sample 1
Target: CCND1, cyclin fold, Cln2 fusion (human)
Method: yeast growth competition, sequencing
Sample: yeast
Setting: strong parent motif
Baseline: not given
Direction: higher = stronger binding
Starting sequence: E2F1 docking peptide (human); PPVKRRLDFETDH
Change | normalised enrichment score
PPVKRRLDFSTDH [E10S] | 2.8
PPVKRRFDFETDH [L7F] | 0.0546
PPVKRRLDFETWH [D12W] | 2.63
PPVKRRLDFESDH [T11S] | 3.51
PPVKRRLRFETDH [D8R] | 0.735
PPVKRYLDFETDH [R6Y] | 1.43
PPPKRRLDFETDH [V3P] | 1.2
PPVKRRLDKETDH [F9K] | 0.137
PPVKRALDFETDH [R6A] | 1.37
PPVLRRLDFETDH [K4L] | 0.482
PPVKRRLNFETDH [D8N] | 3.15
PPVKPRLDFETDH [R5P] | 0.898
PPVKRRLDYETDH [F9Y] | 0.168
PPVKRRLDFETHH [D12H] | 2.71
PPVMRRLDFETDH [K4M] | 2.96
PPVKRRMDFETDH [L7M] | 0.566
PPVKRKLDFETDH [R6K] | 3.07
PPVKRRLDWETDH [F9W] | 0.426
PPVKRRNDFETDH [L7N] | 0.0581

Sample 2
Target: Histone acetyltransferase KAT6A, winged helix 1, GST fusion (KAT6A, Homo sapiens, UniProt Q92794, residues 1-85)
Method: protein binding microarray
Molecule type: double-stranded DNA, one strand shown
Sample: in vitro
Tested at: not given
Setting: 8-mer, flanks averaged, mean of 2 arrays, mostly near background
Baseline: not given
Direction: higher = stronger binding
Residues (chain): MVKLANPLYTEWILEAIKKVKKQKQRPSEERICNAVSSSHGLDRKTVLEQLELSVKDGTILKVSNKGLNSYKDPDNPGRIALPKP
Sequence | E-score
TACCCGAA | 0.106
CGCAAACC | 0.233
CATGAATA | -0.15
CACGTGAG | -0.139
CCACGGGG | 0.241
GTGCACTA | 0.0816
CTATATAG | -0.214
CACCTTGG | -0.229
GTACGACA | -0.276
GGTAAGAC | -0.12
GGATGTTA | 0.123
CAGGGGTA | -0.187
CGTCGGAG | 0.338
AAGATCCC | -0.12
CAGGTAAA | -0.0688
CAGAGTAG | -0.115
CGGCTGGA | 0.264
TGGATTAA | -0.221
AACCGATG | -0.0352
ACGGAGGA | 0.056
GACCAAGA | -0.212
ACAGGTTG | -0.274
CATTCCGG | 0.0338

Sample 3
Target: RNA binding protein fox-1 homolog 2, RRM domain, GST-SBP tag (RBFOX2, Homo sapiens, UniProt O43251-10, residues 100-194)
Method: RNA Bind-n-Seq
Molecule type: RNA
Sample: in vitro
Tested at: 365 nM
Setting: natural RNA segment, single round, ends assumed
Baseline: no-protein control
Direction: higher = stronger binding
Constant ends, left off below: GGGAGUUCUACAGUCCGACGAUC … UGGAAUUCUCGGGUGCCAA
Residues (chain): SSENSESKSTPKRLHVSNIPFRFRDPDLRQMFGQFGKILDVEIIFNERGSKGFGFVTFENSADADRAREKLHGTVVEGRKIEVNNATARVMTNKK
Sequence | RBNS enrichment (R)
GGGAUGGAGACAUGUCAUUUGUAAAAGCAGAAAAAGGUUGCAUUUGUUCACUUUUGUAAUAUUGUCCUGGGCCUGUGUUGGGGUGUUGGGGGAAGCUGGGCAUCAGUGGC | 1.07
GUUUCCUAACUGCAUGUGAUAGACUUGGACAUUUGGAGAAUAUUUUGUACAUGAAUGAUUCAAAAUCCAACCCACCAAAUGGUUACCCUGUAUUCCAGAAACUCACUUGA | 49.7
CGUCCGUCCAUCUGUCCCUGCUGGUCUCUGUCUAGAGAGUGCUGUUCGGGAUCUGCUCCUUCUGUCCCAGGAGGUCUACUGGAGUUAGUUGUGUGGUCACCAAGAGGACU | 0.304
AAACAAGAGAAAAGAAAAAUCAAUUAGAUCUAAACAGUUAUUUCUGUUUCCUAUUUAAUACAGCUGAAGUCAAAAUAUGUAAGAACACAUUUUAAAUACUCUACUUACAG | 0.51
CUUGAAAACGUUAUUUAUAAUGAAAUCAACUAAAACUAUUUUUGCUAUAAGUUCUAUAAGGUGCAUAAAACCCUUAAAUUCAUCUAGUAGCUGUUCCCCUGAACAGGUUU | 1.14
AGGCUUUUAAGAAACACAGGGUUUUGUAUUCUUUACUAAAGAUAUCAGAGCUCUUAAUGUUGCUUAGAUGAGGGUGACUGUCAAGUACAAGCAAGACUGGGACCUUAGAA | 0.203
CUUCUGAUACACUCUCAUCUUGAUCAUAUUUUAAAUCAAGCGUUUUCCUGUAGCUGUCAAGUGGUCUCCAGCAGUUCACUCCAUCAUGUUGCACAGUACUAAGAGACUCA | 0.37
ACCUUGAACCUACAAACCUCCAUGGACAGUCAGCAGGUGGGAAGACAUGGUGUUUGCCCAUAUCACUUCCAUUUUGUAUACACUCUGGAUUUGUGUAGGCUGUAUUCCAG | 0.261

Sample 4
Target: Sal-like protein 4, full length isoform B (SALL4, Homo sapiens, UniProt Q9UJQ4-2, residues 1-616)
Method: universal PBM
Molecule type: double-stranded DNA, one strand shown
Sample: in vitro
Tested at: not given
Setting: 8-mer, flanks averaged, mean of replicates
Direction: higher = stronger binding
Sequence | E-score
CCATGTCC | -0.195
CACAACTC | 0.0574
CCGTTCCC | -0.336
GCGCGTTA | -0.0194
AGGAATTC | -0.113
CGCGAAGA | -0.0823
ACTAATCC | 0.0842
GACAAGCC | -0.0996
CCTAGCGA | -0.228
ACCAAGGC | -0.17
ACATCGTG | -0.00353
ACACTGTC | 0.043
ACTCCCGA | -0.176
ATGGACTG | -0.092
CCGACTAC | -0.164
GCCAACTA | -0.0377
GAGTTTTA | 0.107
CGGGATTA | -0.0835
CAGGAAGG | -0.162
CCCCCTAG | -0.175
GAACCCCA | -0.28
CGCTAAAA | 0.0105
AGACTAAA | 0.0853
ATCCTAGG | -0.13
TCAAATGA | 0.138

Some of these lines once more (sample 1):
Change | normalised enrichment score
PPVMRRLDFETDH [K4M] | 2.96
PPVKRRMDFETDH [L7M] | 0.566
PPVKRKLDFETDH [R6K] | 3.07
PPVKRRLDWETDH [F9W] | 0.426
PPVKRRNDFETDH [L7N] | 0.0581
